Measurements of several laboratories.
Lines come from different studies, so protocols differ. Several values in a cell are separate wells, animals, samples, runs or records. ± gives the spread as reported.
UniProt P27361, sequence (whole entry, looked up): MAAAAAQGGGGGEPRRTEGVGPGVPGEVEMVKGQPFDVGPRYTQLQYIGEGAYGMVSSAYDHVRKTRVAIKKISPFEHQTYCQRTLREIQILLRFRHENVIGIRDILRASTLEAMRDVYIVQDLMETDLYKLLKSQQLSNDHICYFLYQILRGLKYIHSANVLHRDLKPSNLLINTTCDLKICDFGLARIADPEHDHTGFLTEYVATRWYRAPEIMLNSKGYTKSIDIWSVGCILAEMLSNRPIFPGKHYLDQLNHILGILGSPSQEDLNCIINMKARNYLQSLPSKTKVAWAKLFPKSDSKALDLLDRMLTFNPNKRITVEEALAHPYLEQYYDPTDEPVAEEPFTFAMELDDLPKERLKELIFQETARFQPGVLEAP

CCCCCCCCCCCC(=O)N[C@H](CO)C[C@@H](O)c1ccccc1  ceramide level (HeLa; CERT activity, HPLC-MS/MS lipidomics, refers to: ceramide 24; 1 µM, 24 h, not cell-number normalised): 28300 pmol/sample and 22300 pmol/sample and 25600 pmol/sample
CSC(=S)N/N=C(\C)c1ccc(Nc2nnc(-c3ccc(Cl)cc3)c3ccccc23)cc1  cell death (HepG2; cell growth or viability, MTT; 0.625 µM): 93.3%
CC(C)(C)c1cc(-c2ccc3cc4ccccc4nc3n2)nc(-c2ccc3cc4ccccc4nc3n2)c1.[Cl-].[Cl-].[Ru+2].c1ccc2cc3nc4c5cccnc5c5ncccc5c4nc3cc2c1  EC50 (A-375; photocytotoxicity, resazurin; visible light 400-700 nm, 20 mW, 100 J/cm2): 1.97 µM
COCCn1cc(COc2cccc(Cc3cnc(NC(=O)CSc4nc(C)cc(C)n4)s3)c2)nn1  inhibition (PC-3M-luc; colony formation, colony forming; 10 µM): 15.1 ± 13%
C=CC(=O)N1CCCC(n2c(=O)c3ncccc3n(Cc3ccc(Oc4ccccc4)cc3)c2=O)C1 (centres unmarked)  log2 fold change (Rec1; refers to: MET; concentration not given; reference: untreated): 1.01
CCCNC(=O)[C@H]1O[C@@H]1C(=O)N[C@H](C(=O)N1CCC[C@H]1C(=O)OCC1=C2C(C)=CC(C)=[N+]2[B-](C)(C)n2c(C)cc(C)c21)[C@@H](C)CC  viability (MDA-MB-231; MTT; 10 µM, 4 h, irradiated 460-470 nm, 5 min; reference: DMSO): < 10%
CNS(=O)(=O)Nc1nccc(Cc2c(C)c3ccc(Oc4ncccc4F)cc3oc2=O)c1F  IC50 (MKN-74; cell viability; 7 days): > 1 µM
COC1CN([C@H]2CC[C@H]([C@@]3(C)Oc4c(Cl)cc(C(=O)NCc5c(SC)cc(C)[nH]c5=O)c(C)c4O3)CC2)C1  log2 fold change (RNA-seq, refers to: TLCD2 mouse homolog; mouse, HT-1376 xenograft, whole blood; dose not given; reference: vehicle): 0.0554
C[n+]1ccc(/C=N/NC(=O)c2cncc(C(=O)N/N=C/c3cc[n+](C)cc3)n2)cc1  ΔTm (MYC parallel G4 DNA; FRET melting; 1 µM, DNA 0.2 µM, together with: duplex DNA competitor 10 µM): 0.3 ± 0.4 °C
COc1ccccc1-c1ccncc1C(=O)Nc1nnc(OCc2ccc(Cl)cc2)s1  colony survival (MDA-MB-231 BRCA1 wild-type; 0.375 µM; reference: vehicle control): 103% and 92.6%
CC(C)(C)c1nc(-c2cccc(NS(=O)(=O)c3c(F)cccc3F)c2F)c(-c2ccnc(N)n2)s1.Cc1[nH]c2ccccc2c1CCNCc1ccc(/C=C/C(=O)NO)cc1  early apoptotic cells (C13; annexin V/PI flow cytometry; concentration not given, 48 h; reference: untreated): 22.4 ± 4.3%
CO[C@@H]1[C@@H](OC(N)=O)[C@@H](O)[C@H](Oc2ccc3c(O)c(NC(=O)c4ccc(O)c(CC=C(C)C)c4)c(=O)oc3c2C)OC1(C)C  colony count (DLD-1 parental; 250 µM, replicate 2): 0.1
Cc1ncsc1-c1ccc(C(C)NC(=O)C2CC(O)CN2C(=O)C(NC(=O)CCCCCCCCCCN2CCCC(Nc3ncc(Cl)c(Nc4ccccc4S(=O)(=O)C(C)C)n3)C2)C(C)(C)C)cc1 (centres unmarked)  log2 fold change (22Rv1; RNA-seq, refers to: TNFRSF10C mRNA; concentration not given; reference: DMSO): -4.42
COC(=O)c1cc(NC2=NC(=O)C(=Cc3ccc(N(C)C)cc3)S2)ccc1OC(C)=O  fold change (MCF7; refers to: MMS22L mRNA; 0.81 µM (IC50), 24 h; reference: DMSO): 0.214
Nc1ncc(-c2cc(-c3cnn(CC(F)(F)F)c3)ncc2F)nc1C(=O)NC1CNCC(F)C1 (centres unmarked)  remaining binding (DYRK2; KINOMEscan; 1 µM; reference: DMSO control): 100%
CCN(C(=O)c1cc(F)ccc1Oc1nncnc1N1CCC2(C1)CN([C@H](CCCN(C)CCOC)C(C)C)C2)C(C)C  GI50 (Ramos; cell growth or viability; 72 h): > 10 µM
CC(C)(C)c1cc(-c2ccc3cccnc3n2)nc(-c2ccc3cccnc3n2)c1.[Cl-].[Cl-].[Ru+2].c1cnc2c(c1)ccc1cccnc12  EC50 (A-375; photocytotoxicity, resazurin; visible light 400-700 nm, 20 mW, 100 J/cm2): 116 ± 4 µM
CCn1nc(Cl)c2c1-c1cnc(N)c(c1)O[C@H](C)c1cc(F)ccc1-c1nn(C)cc1C2  Emax (Ba/F3 EML4-ALK v3; cell viability): 100%
Cc1cc(Cl)cc(-c2ccnc3cc(CN4C(=O)C5C(C4=O)C5(C)C)sc23)c1C[C@@H]1CNCCO1 (some centres unmarked)  early apoptotic cells (annexin V+/PI-) (CHP-212 parental (wild-type USP7); annexin V-PI flow cytometry; 0.1 µM, 48 h): 7.44% and 6.25% and 9.14%
Cn1ncc2cc(-c3cncc(Cl)c3N3CCC4(CCNC4=O)CC3)ccc21  log2 fold change (LS174T; gene expression, microarray, refers to: SLC6A4 mRNA; concentration not given, 4 h; reference: untreated cells): -1.43
[Cl-].[Cl-].[Ru+2].c1cc(-c2ccc3cccnc3n2)nc(-c2ccc3cccnc3n2)c1.c1ccc2cc3nc4c5cccnc5c5ncccc5c4nc3cc2c1  EC50 (A-375; resazurin; together with: light 733 nm, 9 mW, 100 J/cm2): 26.4 µM
O=C(CNC(=O)c1ccc(Cl)c(C(F)(F)F)c1)Nc1ccc2[nH]nc(/C=C/c3ccccn3)c2c1  GI50 (Ba/F3 TEL-VEGFR1; cell growth, CCK-8): 1.1 µM
CC(C)c1ccc(N(C)c2ccc3c(c2)OCC[C@H]3CNc2cnccc2C(=O)O)cc1  IC50 (RCM-1; cell growth or viability, ATP luminescence; 7 days): ≥ 10 µM
CN1CCCNC(=O)c2cccc(c2)C(=O)NCCCN(C)CCCNc2cccc3c2C(=O)c2cccc(c2C3=O)NCCC1  log2 fold change (SAS; RNA-Seq, refers to: WDR43 mRNA; 1 µM, 6 h; reference: untreated cells): -1.09
O=C(Nc1nnc2c1c(-c1ccc(Cl)cc1)nc1sc(=Cc3ccco3)c(=O)n12)c1ccccc1 (mixture of isomers)  cell growth (RXF 393; SRB; 10 µM, NCI60 single-dose screen; reference: untreated): 60.6%
CN(C)c1ccc(-n2cc(COC(=O)[C@@]3(C)C=C(C(=O)OC(C)(C)C)C(=O)CC3)nn2)cc1  luminescence (AP-1 reporter HEK293; AP-1 reporter gene, luciferase reporter; 1 µM, 6 h, together with: PMA 6 ng/mL; higher = more transcription): 10100 a.u.
[177Lu+3].[Cl-].[Cl-].[Cl-]  live cells (4T1; flow cytometry; 0.4 Bq/cell, 48 h): 72.8%
O=C1CC[C@H](N2Cc3cc(-c4ccn5ncc(Cl)c5n4)ccc3C2=O)C(=O)N1  log2 fold change (MOLM-13; protein level, TMT proteomics, refers to: AACS; 1 µM, 6 h; reference: DMSO): -0.0326
Cc1nn(-c2cccc(N)c2)c(=O)c2cnc(Nc3ccc(N4CCNCC4)cc3)nc12  IC50 (Mitogen-activated protein kinase 3 (MAPK3, Homo sapiens, UniProt P27361); kinase activity, inhibitor, SelectScreen kinase profiling): > 10 µM
CC(=O)OC[C@H]1O[C@@H](n2cc(CSc3nc4ccccc4n3Cc3cn([C@@H]4O[C@H](COC(C)=O)[C@@H](OC(C)=O)C(OC(C)=O)[C@H]4OC(C)=O)nn3)nn2)[C@H](OC(C)=O)C(OC(C)=O)[C@@H]1OC(C)=O (stereo in doubt)  cytotoxicity (Caco-2; MTT; 7.81 ppm): 64.5%
CCN(CC)CC(=O)Nc1cccc(-n2cc(-c3ccc4ccc(-c5cn(-c6cccc(NC(=O)CN(CC)CC)c6)nn5)cc4c3)nn2)c1  fold regulation (RCC4; PCR angiogenesis array, refers to: THBS1; 5 x IC50, 4 h, normoxia; reference: untreated): -1.23 fold
C=CC(=O)N1[C@H](c2ccc3c(c2)OCO3)c2[nH]c3ccccc3c2C[C@@H]1C(=O)NC  mean neuron degeneration (rat DRG neurons; 0.04115 µM, 48 h, together with: vincristine 40 nM): 77.2%
CC(C)(COP(=O)(O)OP(=O)(O)OC[C@H]1O[C@@H](n2cnc3c(N)ncnc32)[C@H](O)[C@@H]1OP(=O)(O)O)[C@@H](O)C(=O)NCCC(=O)NCCSCCC(=O)N[C@@H](CO)C(=O)NCC(=O)N[C@@H](CCCNC(=N)N)C(=O)NCC(=O)N[C@@H](CCCCN)C(=O)NCCCC[C@H](NC(=O)CC[C@@H]1NC(=O)[C@@H](CCCNC(=N)N)NC(=O)[C@H](CCCNC(=N)N)NC(=O)[C@@H](CCCNC(=N)N)NC(=O)[C@H](CCCNC(=N)N)NC(=O)[C@H](Cc2csc3ccccc23)NC(=O)[C@@H](Cc2ccccc2)NC(=O)[C@H](Cc2ccccc2)NC1=O)C(N)=O  inhibition (A549; vimentin expression, Western blot; 10 µM, 2 days): ~40%
COc1cccc(OC)c1-c1cc(C(=O)NC2(C(=O)O)C3CC4CC(C3)CC2C4)nn1-c1ccc(C(=O)N(C)CCCN(C)C(=O)[C@H](CCCCNC(=O)[C@H](CC(C)C)NC(=O)C2OC2C(=O)O)NC(=O)CN2CCN(CC(=O)[O-])CCN(CC(=O)[O-])CCN(CC(=O)[O-])CC2)cc1C(C)C.[177Lu+3] (mixture of isomers)  surface-bound fraction (HT-29; concentration not given, 120 min; reference: added activity): 3.92 ± 0.46%
C[n+]1cccc2cc(/C=N/NC(=O)c3cccc(C(=O)N/N=C/c4ccc5c(ccc[n+]5C)c4)n3)ccc21  ΔTm (MYC parallel G4 DNA; FRET melting; 1 µM, DNA 0.2 µM, together with: duplex DNA competitor 10 µM): 8.8 ± 0.3 °C

A few entries again:
COC1CN([C@H]2CC[C@H]([C@@]3(C)Oc4c(Cl)cc(C(=O)NCc5c(SC)cc(C)[nH]c5=O)c(C)c4O3)CC2)C1  log2 fold change (RNA-seq, refers to: TLCD2 mouse homolog; mouse, HT-1376 xenograft, whole blood; dose not given; reference: vehicle): 0.0554
O=C(CNC(=O)c1ccc(Cl)c(C(F)(F)F)c1)Nc1ccc2[nH]nc(/C=C/c3ccccn3)c2c1  GI50 (Ba/F3 TEL-VEGFR1; cell growth, CCK-8): 1.1 µM
CNS(=O)(=O)Nc1nccc(Cc2c(C)c3ccc(Oc4ncccc4F)cc3oc2=O)c1F  IC50 (MKN-74; cell viability; 7 days): > 1 µM
CC(C)(C)c1nc(-c2cccc(NS(=O)(=O)c3c(F)cccc3F)c2F)c(-c2ccnc(N)n2)s1.Cc1[nH]c2ccccc2c1CCNCc1ccc(/C=C/C(=O)NO)cc1  early apoptotic cells (C13; annexin V/PI flow cytometry; concentration not given, 48 h; reference: untreated): 22.4 ± 4.3%
CCCNC(=O)[C@H]1O[C@@H]1C(=O)N[C@H](C(=O)N1CCC[C@H]1C(=O)OCC1=C2C(C)=CC(C)=[N+]2[B-](C)(C)n2c(C)cc(C)c21)[C@@H](C)CC  viability (MDA-MB-231; MTT; 10 µM, 4 h, irradiated 460-470 nm, 5 min; reference: DMSO): < 10%
